Measurements gathered from unrelated publications.
Lines come from different studies, so protocols differ.
Rhomboid protease AarA: Rhomboid protease AarA (Providencia stuartii, UniProt P46116)
HDAC1: Histone deacetylase 1 (HDAC1, Homo sapiens, UniProt Q13547)
PPARG: Peroxisome proliferator-activated receptor gamma (PPARG, Homo sapiens, UniProt P37231)

Structure (SMILES) = O=C(NCC1CC1)c1cccc(NC(=O)C(C(F)(F)F)C(F)(F)F)c1; tested on = Rhomboid protease AarA; test = enzyme activity, inhibitor, fluorescence; endpoint = IC50; value = 20 µM
Structure (SMILES) = Cc1nn(-c2cccc(N)c2)c(=O)c2cnc(Nc3ccc(N4CCNCC4)cc3)nc12; tested on = GSK3A (Homo sapiens, UniProt P49840); test = enzyme activity, inhibitor; endpoint = IC50; value = 3.44 µM
Structure (SMILES) = C=CC(=O)Nc1cccc(Cn2ncc3cnc(Nc4cnn(CCOC)c4)nc32)c1; tested on = LATS1 human; test = binding, KINOMEscan; setting = 100 nM; how to read = lower = stronger binding; endpoint = percent of control; value = 68%
Structure (SMILES) = COC(=O)CCCCCCCNC(=O)Cc1ccc(Nc2ncc(F)c(-c3cc(F)c4nc(C)n(C(C)C)c4c3)n2)cc1; tested on = HDAC1; test = enzyme activity, inhibitor; endpoint = IC50; value = > 1 µM
Structure (SMILES) = C=C(NC(=O)c1csc(-c2nc3c(cc2O)-c2nc(cs2)C(=O)NC(C(C)O)C(=O)NC(=C(C)OC)c2nc(cs2)C(=O)NC2c4nc(cs4)C(=O)NC(COC(=O)c4c5c6c(cccc6n4O)COC(=O)C(OC4CC(C)(O)C(N(C)C)C(C)O4)C2OC5)c2nc-3cs2)n1)C(N)=O (stereo not shown); system = cynomolgus monkey, both sexes, plasma; setting = intravenous infusion, 3 mg/kg multiple doses, day 7; endpoint = Tmax; value = 12 min
Structure (SMILES) = COc1ccc(C(C)N(C)c2nc(N)nc3nc[nH]c23)cc1 (stereo not shown); tested on = Plasmodium falciparum; test = parasite growth, parasite lactate dehydrogenase; system = NF54; endpoint = IC50; value = > 6 µM
Structure (SMILES) = Cc1c(Cc2cccc(OCC(=O)O)c2)c2ccc(C(=O)N[C@@H](C)c3cccc(C(C)(C)C)c3)cc2n1C; tested on = PPARG; test = ligand displacement, TR-FRET; endpoint = IC50; value = 0.187 µM
Structure (SMILES) = COc1ccc(NC(=O)C(C(F)(F)F)C(F)(F)F)cc1; tested on = Rhomboid protease AarA; test = enzyme activity, inhibitor, fluorescence; endpoint = IC50; value = 22 µM
Structure (SMILES) = COC1CN([C@H]2CC[C@H]([C@@]3(C)Oc4c(Cl)cc(C(=O)NCc5c(SC)cc(C)[nH]c5=O)c(C)c4O3)CC2)C1; test = RNA-seq, measured: NRTN mouse homolog; system = mouse, HT-1376 xenograft, whole blood; setting = dose not given; how to read = reference: vehicle; endpoint = log2 fold change; value = 3.78
Structure (SMILES) = Nc1ncc(-c2cc(-c3cnn(CC(F)(F)F)c3)ncc2F)nc1C(=O)NC1CNCC(F)C1 (stereo not shown); tested on = HIPK2; test = KINOMEscan; setting = 1 µM; how to read = reference: DMSO control; endpoint = remaining binding; value = 56%
Structure (SMILES) = CC1(C)CCC(CN2CCN(c3ccc(C(=O)NS(=O)(=O)c4ccc(NCC5CCOCC5)c([N+](=O)[O-])c4)c(Oc4cnc5[nH]ccc5c4)c3)CC2)=C(c2ccc(Cl)cc2)C1; tested on = MCL1 (Homo sapiens, UniProt Q07820); test = binding, inhibitor, fluorescence polarization; setting = with: labeled Bid-BH3 peptide; endpoint = IC50; value = > 200 µM
Structure (SMILES) = CCc1cccc([C@H](C)NC(=O)c2ccc3c(Cc4cccc(OC(C)(C)C(=O)O)c4)c(C)n(C)c3c2)c1; tested on = Peroxisome proliferator-activated receptor gamma, ligand-binding domain (PPARG, Homo sapiens, UniProt P37231); test = reporter gene, luciferase reporter; system = HEK293T, Gal4-PPARγ LBD; endpoint = IC50; value = 373 µM
Structure (SMILES) = CC(C)OCCOCc1ccc(OCC(O)CN(N=O)C(C)C)cc1 (stereo not shown); tested on = Salmonella typhimurium; test = Ames test; system = TA100; setting = 500 µg/plate, 30 % rat S9; how to read = reference: solvent control; endpoint = revertant fold increase; value = 0.8 fold
Structure (SMILES) = Cc1c(Cc2cccc(OC(C)(C)C(=O)O)c2)c2ccc(C(=O)N[C@@H](C)c3cccc(C(C)(C)C)c3)cc2n1CC(C)C; tested on = PPARG; test = ligand displacement, TR-FRET; endpoint = IC50; value = 0.00207 µM
Structure (SMILES) = O=C(O)COc1ccccc1NC(=O)C(C(F)(F)F)C(F)(F)F; tested on = Rhomboid protease AarA; test = enzyme activity, inhibitor, fluorescence; endpoint = IC50; value = 16 µM
Structure (SMILES) = Cc1nnc(C(C)C)n1C1CC2CCC(C1)N2CCC(NC(=O)COCCOCCOCCOCCNC(=O)Cc1ccc(-c2nncnn2)cc1)c1ccccc1 (stereo not shown); tested on = CCR5 (Homo sapiens, UniProt P51681, Y184K); test = calcium mobilization, antagonist; system = HEK293T cells expressing CCR5; setting = with: PSC-RANTES; endpoint = IC50; value = 0.0176 µM
Structure (SMILES) = Cc1ccc(CNC(=O)[C@@H](NC(=O)[C@H](CCc2ccccc2)NC(=O)[C@H](CCc2ccccc2)NCc2cnccn2)C(C)C)cc1; tested on = Psmb1/Psmb8 (Rattus norvegicus, UniProt P18421+P28064); test = enzyme activity, inhibitor; setting = with: Ac-ANW-aminocoumarin, PA28α 12 nM; endpoint = IC50; value = 1.81 µM
Structure (SMILES) = COC(=O)CCCCC(=O)Nc1ccc(Nc2ncc(F)c(-c3cc(F)c4nc(C)n(C(C)C)c4c3)n2)cc1; tested on = HDAC1; test = enzyme activity, inhibitor; endpoint = IC50; value = > 1 µM
Structure (SMILES) = Nc1ncnc2c1c(-c1ccc(Oc3ccccc3)cc1)nn2C1CCCC1; tested on = SRC (Gallus gallus, UniProt P00523, G530I/P529E/Q528E); test = enzyme activity, inhibitor, radiometric; endpoint = Ki; value = < 20 nM
Structure (SMILES) = Cc1c(Cc2cccc(OC(C)(C)C(=O)O)c2)c2ccc(C(=O)N[C@@H](C)c3ccc(F)c(C(C)(C)C)c3)cc2n1CC(C)C; tested on = PPARG; test = ligand displacement, TR-FRET; endpoint = IC50; value = 0.00133 µM
Structure (SMILES) = CNS(=O)(=O)Nc1nccc(Cc2c(C)c3ccc(Oc4ncccc4F)cc3oc2=O)c1F; tested on = HEC-265; test = cell viability, CellTiter-Glo; setting = 7 days; endpoint = IC50; value = > 1 µM
Structure (SMILES) = COc1cc2cc(CN(Cc3nnnn3Cc3ccco3)C3CCCCC3)c(=O)[nH]c2cc1OC; tested on = Cruzipain (Trypanosoma cruzi, UniProt P25779); test = enzyme activity, inhibitor; endpoint = IC50; value = 14 µM
Structure (SMILES) = Cc1c(Cc2cc(F)cc(OC(C)(C)C(=O)O)c2)c2ccc(C(=O)N[C@@H](C)c3ccc(C(C)(C)C)cc3)cc2n1CC1CCC1; tested on = PPARG; test = ligand displacement, TR-FRET; endpoint = IC50; value = 0.00409 µM
Structure (SMILES) = O=C1CC(c2ccccc2)N1S(=O)(=O)c1cccc(-c2ccccc2)c1 (stereo not shown); tested on = Rhomboid protease AarA; test = enzyme activity, inhibitor, fluorogenic peptide; setting = 8 min pre-incubation; endpoint = IC50; value = 70 µM
Structure (SMILES) = Cc1cc(C)c(S(=O)(=O)N(CC(=O)O)c2ccc(Nc3ccnc(N4CCCC4)n3)cc2)c(C)c1; tested on = MAPK1 (Homo sapiens, UniProt P28482); test = enzyme activity, inhibitor; endpoint = IC50; value = > 100 µM

A few entries again:
Structure (SMILES) = COC(=O)CCCCC(=O)Nc1ccc(Nc2ncc(F)c(-c3cc(F)c4nc(C)n(C(C)C)c4c3)n2)cc1; tested on = HDAC1; test = enzyme activity, inhibitor; endpoint = IC50; value = > 1 µM
Structure (SMILES) = Nc1ncnc2c1c(-c1ccc(Oc3ccccc3)cc1)nn2C1CCCC1; tested on = SRC (Gallus gallus, UniProt P00523, G530I/P529E/Q528E); test = enzyme activity, inhibitor, radiometric; endpoint = Ki; value = < 20 nM
Structure (SMILES) = Cc1c(Cc2cccc(OC(C)(C)C(=O)O)c2)c2ccc(C(=O)N[C@@H](C)c3ccc(F)c(C(C)(C)C)c3)cc2n1CC(C)C; tested on = PPARG; test = ligand displacement, TR-FRET; endpoint = IC50; value = 0.00133 µM
Structure (SMILES) = CNS(=O)(=O)Nc1nccc(Cc2c(C)c3ccc(Oc4ncccc4F)cc3oc2=O)c1F; tested on = HEC-265; test = cell viability, CellTiter-Glo; setting = 7 days; endpoint = IC50; value = > 1 µM
